Measurements gathered from unrelated publications.
Every numbered part comes from another study and shows a few of its results, in no order.
Chain of UniProt P53779 (whole entry, looked up): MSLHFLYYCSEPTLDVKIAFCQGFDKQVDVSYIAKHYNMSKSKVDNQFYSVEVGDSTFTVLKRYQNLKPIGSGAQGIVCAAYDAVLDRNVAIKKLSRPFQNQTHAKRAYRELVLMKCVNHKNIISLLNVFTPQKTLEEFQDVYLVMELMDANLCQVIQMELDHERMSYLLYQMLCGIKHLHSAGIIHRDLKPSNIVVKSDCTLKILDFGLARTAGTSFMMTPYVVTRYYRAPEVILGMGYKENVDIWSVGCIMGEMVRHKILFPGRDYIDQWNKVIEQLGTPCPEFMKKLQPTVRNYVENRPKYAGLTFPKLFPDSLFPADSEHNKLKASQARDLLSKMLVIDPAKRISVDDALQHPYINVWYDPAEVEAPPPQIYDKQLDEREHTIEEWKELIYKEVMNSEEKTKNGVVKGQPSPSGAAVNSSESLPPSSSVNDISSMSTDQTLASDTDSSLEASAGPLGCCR
Chain of UniProt Q9Y2U5 (whole entry, looked up): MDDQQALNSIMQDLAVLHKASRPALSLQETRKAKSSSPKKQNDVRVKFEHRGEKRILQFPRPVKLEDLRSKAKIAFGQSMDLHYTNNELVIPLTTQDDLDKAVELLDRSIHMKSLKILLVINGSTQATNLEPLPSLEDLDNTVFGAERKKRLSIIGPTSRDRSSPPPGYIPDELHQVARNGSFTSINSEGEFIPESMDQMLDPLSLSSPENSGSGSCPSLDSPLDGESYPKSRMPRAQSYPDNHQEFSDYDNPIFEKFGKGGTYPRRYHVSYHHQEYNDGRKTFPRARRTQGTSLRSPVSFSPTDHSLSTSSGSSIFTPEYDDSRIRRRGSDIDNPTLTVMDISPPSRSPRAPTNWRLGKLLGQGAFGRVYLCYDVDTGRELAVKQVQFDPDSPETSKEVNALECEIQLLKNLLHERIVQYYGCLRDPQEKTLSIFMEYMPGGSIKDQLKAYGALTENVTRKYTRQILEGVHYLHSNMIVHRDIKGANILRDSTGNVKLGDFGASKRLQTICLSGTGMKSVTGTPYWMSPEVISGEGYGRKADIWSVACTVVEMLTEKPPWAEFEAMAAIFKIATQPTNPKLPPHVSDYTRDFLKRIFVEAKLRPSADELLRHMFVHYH

Sample 1
Target: Protein kinase C epsilon type (PRKCE, Homo sapiens, UniProt Q02156)
Chain of UniProt Q02156 (whole entry, looked up): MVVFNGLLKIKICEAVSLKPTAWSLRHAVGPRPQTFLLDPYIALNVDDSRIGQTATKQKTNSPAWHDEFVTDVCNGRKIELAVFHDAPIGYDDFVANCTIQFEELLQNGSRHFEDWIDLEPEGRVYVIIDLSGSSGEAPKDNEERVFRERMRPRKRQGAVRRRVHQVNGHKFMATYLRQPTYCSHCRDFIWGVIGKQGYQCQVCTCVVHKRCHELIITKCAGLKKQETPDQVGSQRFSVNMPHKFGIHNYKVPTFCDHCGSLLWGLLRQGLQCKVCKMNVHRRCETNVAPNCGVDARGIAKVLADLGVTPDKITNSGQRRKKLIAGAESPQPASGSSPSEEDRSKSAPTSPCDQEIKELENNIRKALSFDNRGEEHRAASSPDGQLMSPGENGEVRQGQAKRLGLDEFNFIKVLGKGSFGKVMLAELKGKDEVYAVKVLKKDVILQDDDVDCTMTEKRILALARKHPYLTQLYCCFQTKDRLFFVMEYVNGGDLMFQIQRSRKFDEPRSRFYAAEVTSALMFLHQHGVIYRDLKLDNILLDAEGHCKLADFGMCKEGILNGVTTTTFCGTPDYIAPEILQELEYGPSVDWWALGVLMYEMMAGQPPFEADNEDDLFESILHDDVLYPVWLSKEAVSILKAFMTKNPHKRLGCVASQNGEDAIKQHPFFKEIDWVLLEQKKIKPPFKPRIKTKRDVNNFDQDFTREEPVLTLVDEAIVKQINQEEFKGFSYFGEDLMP
Effect on: enzyme activity
Mode: inhibitor
Concentration: 0.5 µM
Reference: control
SMILES | remaining activity
CCN(CC)CCNC(=O)c1c(C)[nH]c(/C=C2\C(=O)Nc3ccc(F)cc32)c1C | 98%
Cn1nc2c3c(cccc31)C(=O)c1ccccc1-2 | 95.7%
c1ccc(-c2[nH]ncc2-c2ccnc3ccccc23)nc1 | 101%
CCOc1nc(NC(=O)Cc2cc(OC)ccc2OC)cc(N)c1C#N | 98.8%
COc1cc2c(cc1OC)-c1[nH]nc(Nc3cccc(F)c3)c1C2 | 87.9%
O=C(Nc1cccc(Nc2nccc(Nc3cccc(C(F)(F)F)c3)n2)c1)C1CC1 | 106%
Cc1nc2cc3nc(-c4cccs4)cnc3cc2n1C | 108%
N#Cc1c(NC(=O)c2cccc3ccccc23)sc2c1CCCC2 | 99.1%
CCN(CC)CCNC(=O)c1c(C)[nH]c(/C=C2\C(=O)Nc3ccc(Cl)cc32)c1C | 102%
CN([C@@H](Cc1ccc(OS(=O)(=O)c2cccc3cnccc23)cc1)C(=O)N1CCN(c2ccccc2)CC1)S(=O)(=O)c1cccc2cnccc12 | 99.5%
Nc1cccc(-c2cc3c(Oc4cccc(O)c4)ncnc3[nH]2)c1 | 97.4%
O=C(NC(NC(=S)Nc1ccc(F)c([N+](=O)[O-])c1)C(Cl)(Cl)Cl)C(c1ccccc1)c1ccccc1 (centres unmarked) | 109%
O=C1c2ccccc2-c2n[nH]c3cccc1c23 | 98.5%
O=c1cc(-c2cccc3c2Sc2ccccc2S3)oc(N2CCOCC2)c1 | 109%
Cc1cc2ncc(-c3ccccc3)nc2cc1C | 99.6%
COc1cc2ncnc(Nc3ccc(O)c(Br)c3)c2cc1OC | 93.2%
Ic1cccc(CSc2nnc(-c3ccncc3)o2)c1 | 86.5%
COc1cc2ncnc(Nc3cccc(Cl)c3)c2cc1OC | 97.8%
C[C@@H]1CCN(C(=O)CC#N)C[C@@H]1N(C)c1ncnc2[nH]ccc12 | 98.5%
CCN(CC)C(=O)c1ccc(Nc2nc(OCC3CCCCC3)c3[nH]cnc3n2)cc1 | 76.6%
Cc1cn(-c2cc(NC(=O)c3ccc(C)c(Nc4nccc(-c5cccnc5)n4)c3)cc(C(F)(F)F)c2)cn1 | 96.9%
N#C/C(=C\c1ccc(O)c(O)c1)C(=O)NCc1ccccc1 | 100%
c1ccc(-c2cnc(Nc3ccc(OCCN4CCCC4)cc3)s2)cc1 | 90.5%

Sample 2
Target: Calcium/calmodulin-dependent protein kinase type II subunit alpha (CAMK2A, Homo sapiens, UniProt Q9UQM7)
Chain of UniProt Q9UQM7 (whole entry, looked up): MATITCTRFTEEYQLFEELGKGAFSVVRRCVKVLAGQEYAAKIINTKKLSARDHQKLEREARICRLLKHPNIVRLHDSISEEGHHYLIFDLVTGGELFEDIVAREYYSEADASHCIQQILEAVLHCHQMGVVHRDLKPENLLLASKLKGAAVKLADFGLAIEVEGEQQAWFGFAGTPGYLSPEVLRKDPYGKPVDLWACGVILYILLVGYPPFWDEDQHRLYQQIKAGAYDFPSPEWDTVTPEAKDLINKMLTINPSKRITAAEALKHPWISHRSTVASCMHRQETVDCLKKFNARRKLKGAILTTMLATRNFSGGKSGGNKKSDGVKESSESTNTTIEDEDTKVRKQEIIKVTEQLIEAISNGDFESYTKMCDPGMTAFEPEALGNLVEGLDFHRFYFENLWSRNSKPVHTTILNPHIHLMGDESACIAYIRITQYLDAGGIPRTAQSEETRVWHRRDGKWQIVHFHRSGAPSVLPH
Effect on: enzyme activity
Mode: inhibitor
Concentration: 10 µM
Structure (SMILES) | inhibition [%]
C[C@H](CCCC(C)(C)O)[C@H]1CC[C@H]2[C@@H]3CC=C4C[C@@H](O)CC[C@]4(C)[C@H]3CC[C@]12C | 10
COc1cc(C[C@@H](CO[C@@H]2O[C@H](CO)[C@@H](O)[C@H](O)[C@H]2O)[C@H](CO[C@@H]2O[C@H](CO)[C@@H](O)[C@H](O)[C@H]2O)Cc2ccc(O)c(OC)c2)ccc1O | 14
O=C(O)C[C@@H]1C(=O)O[C@H]2[C@@H]3OC(=O)c4cc(O)c(O)c(O)c4-c4c(cc(O)c(O)c4O)C(=O)OC[C@H]2O[C@@H](OC(=O)c2cc(O)c(O)c(O)c2)[C@@H]3OC(=O)c2cc(O)c(O)c3c2[C@H]1[C@H](O)C(=O)O3 | -74
CC(C)=CCc1c(-c2ccc(O)cc2O)oc2c([C@H]3C=C(C)C[C@@H](c4ccc(O)cc4O)[C@@H]3C(=O)c3ccc(O)cc3O)c(O)cc(O)c2c1=O | -12
COC(=O)c1cc(OC)c(OC)c(OC)c1 | -1
O=C1c2c(O)cc(O[C@@H]3O[C@H](CO)[C@@H](O)[C@H](O)[C@H]3O)cc2O[C@H](c2ccc(O)c(O)c2)[C@H]1O | 28
COc1c(O)cc2occ(-c3ccc(O)cc3)c(=O)c2c1O | 48
CN(C)C(N)=NCCC[C@H](N)C(=O)O | -17
CCCOC(=O)c1cc(O)c(O)c(O)c1 | 30
O=C(O)c1ccc(O)cc1O | -21
O=C1CCN([C@@H]2O[C@H](CO)[C@@H](O)[C@H]2O)C(=O)N1 | 27

Sample 3
Target: DNA polymerase theta, ATPase domain (POLQ, Homo sapiens, UniProt O75417)
Chain of UniProt O75417 (whole entry, unmodified, looked up): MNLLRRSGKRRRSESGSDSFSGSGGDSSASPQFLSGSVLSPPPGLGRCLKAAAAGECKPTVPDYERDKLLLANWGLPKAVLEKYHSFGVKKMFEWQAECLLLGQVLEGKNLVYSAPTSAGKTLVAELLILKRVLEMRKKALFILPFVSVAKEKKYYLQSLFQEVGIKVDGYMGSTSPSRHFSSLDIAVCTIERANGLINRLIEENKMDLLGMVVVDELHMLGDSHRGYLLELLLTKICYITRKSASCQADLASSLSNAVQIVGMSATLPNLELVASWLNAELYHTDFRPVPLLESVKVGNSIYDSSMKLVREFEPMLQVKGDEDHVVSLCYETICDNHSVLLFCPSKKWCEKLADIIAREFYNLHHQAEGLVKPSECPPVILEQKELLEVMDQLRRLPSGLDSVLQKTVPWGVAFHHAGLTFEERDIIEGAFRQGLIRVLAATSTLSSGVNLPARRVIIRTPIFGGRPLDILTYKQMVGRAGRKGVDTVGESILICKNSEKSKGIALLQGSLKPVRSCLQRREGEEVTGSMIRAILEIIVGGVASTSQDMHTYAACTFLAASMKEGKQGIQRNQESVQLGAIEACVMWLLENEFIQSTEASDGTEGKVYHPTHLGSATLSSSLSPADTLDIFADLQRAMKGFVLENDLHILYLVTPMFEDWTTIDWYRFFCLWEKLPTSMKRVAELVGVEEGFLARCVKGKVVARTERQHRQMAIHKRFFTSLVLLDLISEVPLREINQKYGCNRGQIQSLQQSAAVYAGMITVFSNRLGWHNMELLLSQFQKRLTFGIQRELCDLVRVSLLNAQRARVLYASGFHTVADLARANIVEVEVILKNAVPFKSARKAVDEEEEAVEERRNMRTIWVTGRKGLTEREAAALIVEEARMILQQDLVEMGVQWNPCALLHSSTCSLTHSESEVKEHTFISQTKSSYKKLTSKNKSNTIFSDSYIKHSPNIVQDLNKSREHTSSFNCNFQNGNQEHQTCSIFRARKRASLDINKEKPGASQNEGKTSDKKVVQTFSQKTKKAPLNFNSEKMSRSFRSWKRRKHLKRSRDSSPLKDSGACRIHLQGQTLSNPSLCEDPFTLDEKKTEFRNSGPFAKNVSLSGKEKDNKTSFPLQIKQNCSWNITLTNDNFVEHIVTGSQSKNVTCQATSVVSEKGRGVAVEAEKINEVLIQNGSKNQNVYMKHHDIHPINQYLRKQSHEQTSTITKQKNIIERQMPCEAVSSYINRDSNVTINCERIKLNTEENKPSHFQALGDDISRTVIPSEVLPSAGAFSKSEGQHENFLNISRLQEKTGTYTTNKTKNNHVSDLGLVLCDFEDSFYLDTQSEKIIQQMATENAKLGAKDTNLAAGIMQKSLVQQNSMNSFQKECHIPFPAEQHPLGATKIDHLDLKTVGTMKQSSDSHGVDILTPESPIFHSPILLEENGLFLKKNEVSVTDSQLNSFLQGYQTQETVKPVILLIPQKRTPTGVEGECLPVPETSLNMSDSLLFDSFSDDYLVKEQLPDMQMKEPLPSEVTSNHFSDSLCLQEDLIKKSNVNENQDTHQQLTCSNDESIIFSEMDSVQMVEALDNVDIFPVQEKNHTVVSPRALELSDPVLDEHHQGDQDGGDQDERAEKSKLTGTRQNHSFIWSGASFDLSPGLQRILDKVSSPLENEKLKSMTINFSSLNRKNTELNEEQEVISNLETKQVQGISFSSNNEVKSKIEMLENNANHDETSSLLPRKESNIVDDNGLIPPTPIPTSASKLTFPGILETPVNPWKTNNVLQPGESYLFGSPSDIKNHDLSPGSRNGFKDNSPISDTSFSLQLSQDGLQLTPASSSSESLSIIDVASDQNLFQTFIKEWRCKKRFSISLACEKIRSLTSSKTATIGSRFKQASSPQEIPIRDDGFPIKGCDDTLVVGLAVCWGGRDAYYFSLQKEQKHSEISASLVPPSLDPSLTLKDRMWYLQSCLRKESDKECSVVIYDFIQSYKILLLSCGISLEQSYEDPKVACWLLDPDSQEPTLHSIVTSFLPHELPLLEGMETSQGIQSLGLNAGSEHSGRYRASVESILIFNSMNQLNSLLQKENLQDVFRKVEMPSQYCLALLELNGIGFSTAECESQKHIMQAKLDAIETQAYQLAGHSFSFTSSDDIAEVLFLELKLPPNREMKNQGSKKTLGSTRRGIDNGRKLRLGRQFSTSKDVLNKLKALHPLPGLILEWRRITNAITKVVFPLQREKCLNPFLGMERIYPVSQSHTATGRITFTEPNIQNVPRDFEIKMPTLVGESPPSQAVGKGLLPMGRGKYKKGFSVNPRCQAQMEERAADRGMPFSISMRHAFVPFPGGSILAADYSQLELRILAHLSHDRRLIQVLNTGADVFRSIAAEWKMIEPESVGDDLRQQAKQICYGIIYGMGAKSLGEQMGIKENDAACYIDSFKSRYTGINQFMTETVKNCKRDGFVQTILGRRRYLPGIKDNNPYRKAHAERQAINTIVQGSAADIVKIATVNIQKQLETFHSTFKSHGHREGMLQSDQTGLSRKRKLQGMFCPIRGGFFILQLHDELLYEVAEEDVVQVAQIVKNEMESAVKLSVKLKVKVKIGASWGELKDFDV
Effect on: enzyme activity
Mode: inhibitor
Concentration: 77 µM
Reference: untreated
SMILES | remaining activity
Cc1cccc(Nc2ccncc2S(=O)(=O)NC(=O)NC(C)C)c1 | 94.4%
CC(=O)N[C@H]1[C@H]([C@H](O)[C@H](O)CO)OC(C(=O)O)=C[C@@H]1NC(=N)N | 102%
CC(C)(C)c1ccc(S(=O)(=O)/C=C/C#N)cc1 | 98.5%
Cc1ccc(-n2sc(=O)n(Cc3ccc(F)cc3)c2=O)cc1 | 97.4%
Cc1cc(-n2c(=O)[nH]c(=O)n(C)c2=O)ccc1Oc1ccc(SC(F)(F)F)cc1 | 69.7%
Cc1ccc2c(c1)C(=O)[C@]1(O)CCN(c3ccccc3)C1=N2 | 78.2%
[NH-]c1c[n+](N2CCOCC2)no1 | 101%
Cc1onc(-c2ccccc2)c1-c1ccc(S(N)(=O)=O)cc1 | 97.2%
CCN1CCC[C@H]1CNC(=O)c1c(O)c(Cl)cc(Cl)c1OC | 99.7%
c1ccc(CN2CCC3(CCCc4ccccc43)CC2)cc1 | 102%
COc1ccc(CNC(=O)Nc2ncc([N+](=O)[O-])s2)cc1 | 95.7%
C[N+]1(C)[C@@H]2C[C@@H](OC(=O)C(O)(c3cccs3)c3cccs3)C[C@H]1[C@@H]1O[C@@H]12 | 92.2%
CC(=O)N[C@@H](C(=O)O)C(C)(C)SN=O | 103%
Cc1cnc(C(=O)O)c[n+]1[O-] | 81.6%

Sample 4
Compound: C[C@H](NC(=O)c1cnc2n1[C@](C)(Cc1ccc(C#N)cc1)C(=O)N2c1cc(Cl)c(F)c(Cl)c1)C(=O)NC1(c2ccccn2)CC1
Technique: competition with immobilised ligand
Concentration: 1 µM
target | assay | remaining binding [%]
Macrophage-stimulating protein receptor (MST1R, Homo sapiens, UniProt Q04912) | cell-free assay | 100
Tyrosine-protein kinase ABL1, phosphorylated (ABL1, Homo sapiens, UniProt P00519, E255K) | binding | 93
Testis-specific serine/threonine-protein kinase 1 (TSSK1B, Homo sapiens, UniProt Q9BXA7) | cell-free assay | 79
Tyrosine-protein kinase ABL1, phosphorylated (ABL1, Homo sapiens, UniProt P00519, T315I) | cell-free assay | 100
Dual specificity mitogen-activated protein kinase kinase 5 (MAP2K5, Homo sapiens, UniProt Q13163) | cell-free assay | 100
G protein-coupled receptor kinase 4 (GRK4, Homo sapiens, UniProt P32298) | cell-free assay | 100
Mitogen-activated protein kinase kinase kinase 2 (MAP3K2, Homo sapiens, UniProt Q9Y2U5) | cell-free assay | 100
Atypical kinase COQ8B, mitochondrial (COQ8B, Homo sapiens, UniProt Q96D53) | cell-free assay | 100
Testis-specific serine/threonine-protein kinase 3 (TSSK3, Homo sapiens, UniProt Q96PN8) | cell-free assay | 100
Ribosomal protein S6 kinase alpha-1, C-terminal kinase domain (RPS6KA1, Homo sapiens, UniProt Q15418) | cell-free assay | 100
Rhodopsin kinase GRK7 (GRK7, Homo sapiens, UniProt Q8WTQ7) | cell-free assay | 100
Mitogen-activated protein kinase kinase kinase kinase 4 (MAP4K4, Homo sapiens, UniProt O95819) | cell-free assay | 100
Calcium/calmodulin-dependent protein kinase kinase 1 (CAMKK1, Homo sapiens, UniProt Q8N5S9) | cell-free assay | 100
Serine/threonine-protein kinase tousled-like 1 (TLK1, Homo sapiens, UniProt Q9UKI8) | cell-free assay | 100
Tyrosine-protein kinase ABL1, non-phosphorylated (ABL1, Homo sapiens, UniProt P00519, Q252H) | cell-free assay | 90
Mitogen-activated protein kinase 10 (MAPK10, Homo sapiens, UniProt P53779) | cell-free assay | 91
Serine/threonine-protein kinase SIK3 (SIK3, Homo sapiens, UniProt Q9Y2K2) | cell-free assay | 76
Phosphorylase b kinase gamma catalytic chain, skeletal muscle/heart isoform (PHKG1, Homo sapiens, UniProt Q16816) | cell-free assay | 100
Peripheral plasma membrane protein CASK (CASK, Homo sapiens, UniProt O14936) | cell-free assay | 100
Serine/threonine-protein kinase PAK 3 (PAK3, Homo sapiens, UniProt O75914) | cell-free assay | 100

Some of these lines once more (sample 2):
Structure (SMILES) | inhibition [%]
O=C(O)C[C@@H]1C(=O)O[C@H]2[C@@H]3OC(=O)c4cc(O)c(O)c(O)c4-c4c(cc(O)c(O)c4O)C(=O)OC[C@H]2O[C@@H](OC(=O)c2cc(O)c(O)c(O)c2)[C@@H]3OC(=O)c2cc(O)c(O)c3c2[C@H]1[C@H](O)C(=O)O3 | -74
O=C(O)c1ccc(O)cc1O | -21
COc1cc(C[C@@H](CO[C@@H]2O[C@H](CO)[C@@H](O)[C@H](O)[C@H]2O)[C@H](CO[C@@H]2O[C@H](CO)[C@@H](O)[C@H](O)[C@H]2O)Cc2ccc(O)c(OC)c2)ccc1O | 14
CN(C)C(N)=NCCC[C@H](N)C(=O)O | -17
C[C@H](CCCC(C)(C)O)[C@H]1CC[C@H]2[C@@H]3CC=C4C[C@@H](O)CC[C@]4(C)[C@H]3CC[C@]12C | 10
